# Measured values from different studies.
# Each line is one published result; not all experiments were run side by side. Numbers after ± are the reported error.
Molecule,test,test system,setting,endpoint,value
COc1cccc2c1C(=O)c1c(O)c3c(c(O)c1C2=O)C[C@@](O)(C(=O)CO)C[C@@H]3O[C@H]1C[C@H](NC(=O)[C@H](CC(C)C)NC(=O)[C@H](C)NC(=O)[C@H](CC(C)C)NC(=O)CCNC(=O)CCC(=O)O)[C@H](O)[C@H](C)O1,,"mouse, E0771 tumour-bearing, liver","intravenous, 92 µmol/kg",Cmax,49 µM
CCCCCCCCCCCCCCCC(=O)N[C@H](C(=O)N[C@H](C(=O)N[C@@H](CSSCCOP(=O)(O)CO[C@H](C)Cn1cnc2c(N)ncnc21)C(=O)N[C@@H](CCC(=O)O)C(=O)O)C(C)C)C(C)C,,PBS,"100 µM, 3 days, 37 °C, without dithiothreitol",stability,stable
melittin,isothermal titration calorimetry,POPC/POPG LUVs 90:10%,"100 µM, pH 7.0, 40 °C",partitioning enthalpy,-4.7 kcal/mol
CC(C)C[C@@H]1NC(=O)[C@@H]2CSSC[C@@H](C(=O)NCC(N)=O)NC(=O)[C@H](Cc3ccccc3)NC(=O)CNC(=O)[C@H](CC(N)=O)NC(=O)[C@@H]3CCCN3C(=O)CNC(=O)[C@@H]3CSSC[C@H](NC(=O)[C@H]([C@@H](C)O)NC(=O)[C@H](CC(C)C)NC(=O)[C@@H]4CCCN4C(=O)[C@@H]4CCCN4C(=O)[C@H](CC(N)=O)NC(=O)[C@H](CC(=O)O)NC(=O)CNC(=O)[C@H](CCCNC(=N)N)NC(=O)[C@@H]4CCCN4C(=O)[C@H](CCCNC(=N)N)NC(=O)[C@@H]4CCCN4C(=O)[C@@H](NC(=O)CNC(=O)CN4CCN(CC(=O)O)CCN(CC(=O)O)CCN(CC(=O)O)CC4)CSSC[C@H](NC(=O)CNC(=O)[C@H](C)NC1=O)C(=O)N[C@@H](C(C)C)C(=O)N3)C(=O)N[C@@H](CO)C(=O)N[C@@H](CCC(N)=O)C(=O)N[C@@H](CC(=O)O)C(=O)N[C@@H](CO)C(=O)N[C@@H](CC(=O)O)C(=O)N2 [copper-64 labelled],PET/CT,"CCSP-rtTA TetO-MYC TetO-KrasG12D mouse, healthy lung tissue",60 min,tissue uptake,0.3 %ID/g
CSCC[C@H](NC(=O)[C@H](CC(C)C)NC(=O)[C@H](Cc1c[nH]cn1)NC(=O)CNC(=O)[C@@H](NC(=O)[C@H](C)NC(=O)[C@H](Cc1c[nH]c2ccccc12)NC(=O)[C@H](CCC(N)=O)NC(=O)CCC(=O)NCCOCCNC(=O)CN1CCN(CC(=O)O)CCN(CC(=O)O)CCN(CC(=O)O)CC1)C(C)C)C(N)=O,,"CF-1 mouse, urine and bladder","intravenous, 185 kBq, 1 h",excretion,83.6 ± 2.83%
N=C(N)NCCC[C@@H]1NC(=O)[C@H](CCCCNC(=O)[C@H](CC(=O)O)NC(=O)[C@H](CC(=O)O)NC(=O)[C@H](CC(=O)O)NC(=O)CC[C@H](NC(=O)CCOCCOCCOCCOCCNC(=O)c2ccc(NN)nc2)C(=O)N[C@@H](CC(=O)O)C(=O)N[C@@H](CC(=O)O)C(=O)N[C@@H](CC(=O)O)C(=O)NCCCC[C@@H]2NC(=O)[C@@H](Cc3ccccc3)NC(=O)[C@H](CC(=O)O)NC(=O)CNC(=O)[C@H](CCCNC(=N)N)NC2=O)NC(=O)[C@@H](Cc2ccccc2)NC(=O)[C@H](CC(=O)O)NC(=O)CNC1=O [technetium-99m labelled],γ-counting,"female athymic nude mice, U-87 MG xenograft, brain","intravenous, 1 h",tissue uptake,0.13 ± 0.02 %ID/g
Cc1ccccc1NC(=O)Nc1ccc(CC(=O)N[C@@H](CCCCNC(=O)/C=C/c2cccnc2)C(=O)N[C@@H](CCCC(=O)O)C(=O)NC2(C(=O)NCCOCCOCCOCCOCCC(=O)N[C@@H](CCCCNC(=O)CN3CCN(CC(=O)O)CCN(CC(=O)O)CCN(CC(=O)O)CC3)C(N)=O)CCCCC2)cc1 [lutetium-177 labelled],,"C57BL/6 mouse, tumour and VLA-4-positive tissues","intravenous, 24 h, added: LLP2A-PEG4 100 µg (1100-fold) blocking",tissue uptake,≤ 0.2 %ID/g
Cc1ccccc1NC(=O)Nc1ccc(CC(=O)N[C@@H](CCCCNC(=O)/C=C/c2cccnc2)C(=O)N[C@@H](CCCC(=O)O)C(=O)NC2(C(=O)NCCOCCOCCOCCOCC(=O)N[C@@H](CCCCNC(=S)Nc3ccc(C[C@H]4CN(CC(=O)O)CCN(CC(=O)O)CCN4CC(=O)O)cc3)C(N)=O)CCCCC2)cc1 [fluorine-18 labelled],,"mouse C57BL/6 female, B16-F10 tumour, tumour","intravenous, 0.5 h",tissue uptake,9.04 ± 2.3 %ID/g
CN[C@@](C)(C[18F])C(=O)O,,SCID mice (MDA-MB-468 xenograft),120 min after injection,tumour uptake,4.1 ± 0.7 %ID/g
COc1cccc2c1C(=O)c1c(O)c3c(c(O)c1C2=O)C[C@@](O)(C(=O)CO)C[C@@H]3O[C@H]1C[C@H](NC(=O)[C@@H]2CCCN2C(=O)CNC(=O)[C@H](CC(C)C)NC(=O)[C@H](C)NC(=O)CP(=O)(O)O)[C@H](O)[C@H](C)O1,,"mouse, E0771 tumour-bearing, plasma","intravenous, 92 µmol/kg",Cmax,560 µM
"CCN1C(=CC=CC=CC2=[N+](CCCCCC(=O)NCCCC[C@H](NC(=O)CN3CCN(CC(=O)O)CCN(CC(=O)O)CCN(CC(=O)O)CC3)C(=O)NCC(=O)NCC(=O)N[C@@H](Cc3ccc(O)cc3)C(=O)NCC(=O)N[C@H]3CSSC[C@@H]4NC(=O)CNC(=O)[C@H](C)NC(=O)[C@H](CC(C)C)NC(=O)[C@@H]5CSSC[C@@H](C(=O)NCC(N)=O)NC(=O)[C@H](Cc6ccccc6)NC(=O)CNC(=O)[C@H](CC(N)=O)NC(=O)[C@@H]6CCCN6C(=O)CNC(=O)[C@H](CSSC[C@H](NC(=O)[C@H](CO)NC(=O)[C@H]([C@@H](C)O)NC(=O)[C@@H]6CCCN6C(=O)[C@H](C)NC(=O)[C@H](Cc6c[nH]c7ccccc67)NC(=O)[C@H](CC(=O)O)NC(=O)CNC(=O)[C@H](CCCNC(=N)N)NC(=O)CNC(=O)[C@H](CCC(N)=O)NC(=O)[C@@H]6CCCN6C3=O)C(=O)N[C@@H](CO)C(=O)N[C@@H](CCC(N)=O)C(=O)N[C@@H](CC(=O)O)C(=O)N[C@@H](CO)C(=O)N[C@@H](CC(=O)O)C(=O)N5)NC(=O)[C@H](C(C)C)NC4=O)c3ccc4c(S(=O)(=O)[O-])cc(S(=O)(=O)O)cc4c3C2(C)C)C(C)(C)c2c1ccc1c(S(=O)(=O)O)cc(S(=O)(=O)O)cc21 (single isomer, unassigned) [copper-64 labelled]",,"nude mouse, kidney","intravenous, 100 µCi, 24 h",tissue uptake,~30 %ID/g
N=C(N)NCCC[C@@H]1NC(=O)[C@H](CCCCNC(=O)CNC(=O)CNC(=O)CNC(=O)CC[C@H](NC(=O)CCOCCOCCOCCOCCNC(=O)c2ccc(NN)nc2)C(=O)NCC(=O)NCC(=O)NCC(=O)NCCCC[C@@H]2NC(=O)[C@@H](Cc3ccccc3)NC(=O)[C@H](CC(=O)O)NC(=O)CNC(=O)[C@H](CCCNC(=N)N)NC2=O)NC(=O)[C@@H](Cc2ccccc2)NC(=O)[C@H](CC(=O)O)NC(=O)CNC1=O [technetium-99m labelled],γ-counting,"female athymic nude mice, U-87 MG xenograft, liver","intravenous, 0.5 h",tissue uptake,2.88 ± 0.25 %ID/g

# For quick reference, copied from above:
Molecule,test,test system,setting,endpoint,value
CN[C@@](C)(C[18F])C(=O)O,,SCID mice (MDA-MB-468 xenograft),120 min after injection,tumour uptake,4.1 ± 0.7 %ID/g
